Experimental data collected from several papers.
Every numbered part comes from another study and shows a few of its results, in no order. Positions count from the first letter of the parent shown.

Block 1
Target: RNA binding protein fox-1 homolog 2, RRM domain, GST-SBP tag (RBFOX2, Homo sapiens, UniProt O43251-10, residues 100-194)
Technique: RNA Bind-n-Seq
Molecule type: RNA
Matrix: in vitro
Concentration: 365 nM
Notes: natural RNA segment, single round, ends assumed
Reference: no-protein control
Reading: higher = stronger binding
Shared flanks, not repeated: GGGAGUUCUACAGUCCGACGAUC … UGGAAUUCUCGGGUGCCAA
Construct (chain): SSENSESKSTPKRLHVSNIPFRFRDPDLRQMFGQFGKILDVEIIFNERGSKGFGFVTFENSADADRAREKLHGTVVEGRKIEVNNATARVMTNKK
Under “RBNS enrichment (R)”, `CCUACCUGCUUACCCCACUCCCUCACCUUCCUCCUUCCCUUCUGCCCUCCAUCCACCUGCCUUAACUAAUUGGGGCUGGAGUUGGUCAUUUUUGUACACCCACAGUGGUA` is recorded as 1.05.
`AAGGCUUAAGAGUGCCUGUUUCUGACAAUAAAAUGUUCCAAUAUUAAUGAACAGUGCCAAAUACACUGUGCAUAUCUAUAAUUUUCCAUUUGAAUGUAUGUUAAUUACUC`: “RBNS enrichment (R)” 0.968.
Under “RBNS enrichment (R)”, `GCUGUGAUGAAAGAGAAAAAUGCAGAGUGCCAGUCACUGUGGUGUCUGGGGGAAAUCACCGGGGUUCAGGGGAGGGGAUUUCCCCGUGAAAUAAACUCAUCAUGGACACU` is recorded as 0.965.
For `GUUUACCCGUCAAGUAUUAGCAGCAGUAUUUCUCCCACACGGAGAAGCCUGUGCACAAGUAGCAUGGGCACCUGGAAAACUUGAACCUGGAAGGAAAGAUUCCCAGCAUG`, “RBNS enrichment (R)” read 14.3.
For `AAUGCAAAAACAGAUUAGUAUGUGUUCAGGUGAACUUUUACUUAAAACAUUAAACUUUGGCUCUCCUAAAUUGUUCAGGUCACAAAAACUCUUCAUUCAUUUUUAACUUU`, “RBNS enrichment (R)” read 0.606.
`CAGCAUAAUUAGUGUUGAGAGUGGUUCAGUUGUCUUUAAUGUUUGUCAUGUGGAAAUGGAAGUAGCCUCUUUUUGUUCUGAAAUUGAGUUUAUUCAAAGUGUAAAAGCAC` — result for “RBNS enrichment (R)”: 1.4.
`AGGAAUGGGCUGUGAGACUGGAUAGUUAUGGUGCAUCAAGGCUGAUCCUUCUGAUUGGGUGGGGCGAGCAUCCCAGUGUCCAAAAAUUCCAGCCUAAAUGACAGGUCCUC`: “RBNS enrichment (R)” 1.62.
For `UUUUGCAGCAAAGUGAUAUUUAUUGAGUUAUGUGGAAAAGAUGGCUUGUAUUUUUCAGAUUAUUACAACACACUGUGCAGAAUUAGACAGAUGUUCCGUGGUGUUUGGUU`, “RBNS enrichment (R)” read 4.35.
`UGGACCUUCAGCCUCUUCUCUUCCAGUUUACCUCCAGGUGGGGCUGAUAUGCCACAUAGGAUGCUCCAAAGCCCCAAGACAUUGGAGUUUGGCUCAAGAGCCUUUAUUUG`: “RBNS enrichment (R)” 0.41.
For `CCUCCAGGACAGGAGAUCUGGGAUGCCUGGCUGCUGGAGUACAUGUGUUCACAAGGGUUACUCCUCAAAACCCCCAGUUCUCACUCAUGUCCCCAACUCAAGGCUAGAAA`, “RBNS enrichment (R)” read 0.565.
Under “RBNS enrichment (R)”, `UGCUCCAUGCCACUAGCAACCUCCUGCCAUGUGUGGCAGUCACAAAGGUCAUCAGAAUGGAGUGAGUGCUCCCUGGGAAGGCAGGCAGGACCUUCAACCAUUGGACCAAG` is recorded as 0.432.
Under “RBNS enrichment (R)”, `CCAGAACAGUAAGUACCACUGGACCCCGAAGCUGUGAGUGCUAUCUUGGGCAGACCAAACUCAGGCCUGAUGCAACCAAGUUGCCCCUGGGUCCUAGCGACACCUCCUCA` is recorded as 0.23.

Block 2
Target: Histone acetyltransferase KAT6A, winged helix 1, GST fusion (KAT6A, Homo sapiens, UniProt Q92794, residues 1-85)
Technique: protein binding microarray
Molecule type: double-stranded DNA, one strand shown
Matrix: in vitro
Concentration: not given
Notes: 8-mer, flanks averaged, mean of 2 arrays, mostly near background
Reference: not given
Reading: higher = stronger binding
Residues (chain): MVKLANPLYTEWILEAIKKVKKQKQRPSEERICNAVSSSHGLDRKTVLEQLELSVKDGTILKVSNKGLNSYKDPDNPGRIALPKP
`CATCATCG` has an E-score of -0.08.
`GATCGGGA` has an E-score of 0.136.
`CTTACGCC` gave an E-score of 0.0927.
The E-score of `ACTCACCT` is reported as -0.276.
With `ACCCGCGA` the E-score was 0.307.
`TCGACCAA` gave an E-score of -0.185.
For `GCCCGCAC`, the E-score was 0.311.
With `CGAGTCAC` the E-score was 0.016.
`CCCGGATA` gave an E-score of 0.135.
For `ACAATGAC`, the E-score was -0.103.
For `AGTGGCTA`, the E-score was -0.0954.
The E-score of `CCCACTTC` is reported as -0.141.
With `ATGGGGCA` the E-score was -0.193.
The E-score of `CCAGCGGG` is reported as 0.306.
With `AACTTATC` the E-score was -0.0956.
The E-score of `ACCTCATG` is reported as -0.148.
With `CATAAGAC` the E-score was 0.0737.
The E-score of `ATGATGCG` is reported as 0.192.
`GAACATGA` gave an E-score of -0.066.
The E-score of `ACCCCTCT` is reported as -0.138.
With `ATCAGGTA` the E-score was -0.048.
With `CACGATCC` the E-score was -0.107.
For `AGGCCATC`, the E-score was -0.108.
With `AAGGGTAT` the E-score was -0.05.
`CCCCGAGG` has an E-score of 0.101.

Block 3
Target: BATF, bZIP domain (human)
Technique: DHFR protein complementation
Matrix: yeast
Notes: single substitutions, most at no-binding floor
Reference: wild-type JUN-FOS pair
Reading: higher = stronger binding
Starting sequence: JUN, bZIP domain (human); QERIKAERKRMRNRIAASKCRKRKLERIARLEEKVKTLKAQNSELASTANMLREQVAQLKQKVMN; partner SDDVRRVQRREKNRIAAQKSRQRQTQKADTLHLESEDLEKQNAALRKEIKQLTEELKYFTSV
`K34N` has a binding fitness of -0.0459 natural log.
`M51V` has a binding fitness of -0.0116 natural log.
With `E54T` the binding fitness was -0.0621 natural log.
`I28K` gave a binding fitness of -0.0574 natural log.
The binding fitness of `V56S` is reported as -0.851 natural log.
For `T48V`, the binding fitness was -0.0506 natural log.
With `Q41E` the binding fitness was 0.0524 natural log.
`E54P` has a binding fitness of -1.14 natural log.
For `T37D`, the binding fitness was 0.0296 natural log.
The binding fitness of `S43N` is reported as 0.0276 natural log.
With `E33L` the binding fitness was -0.0737 natural log.
For `T37E`, the binding fitness was 0.0658 natural log.
`K39D` gave a binding fitness of -0.664 natural log.
The binding fitness of `N42E` is reported as -0.637 natural log.
`A57Q` gave a binding fitness of -0.0636 natural log.
`K36N` gave a binding fitness of -0.00384 natural log.
`L38E` gave a binding fitness of -0.644 natural log.
The binding fitness of `E32C` is reported as -0.298 natural log.
`K36S` gave a binding fitness of 0.000646 natural log.
With `M51R` the binding fitness was 0.0684 natural log.
The binding fitness of `K39M` is reported as -0.305 natural log.

Block 4
Target: RING finger protein unkempt homolog, zinc fingers 1-6, GST-SBP tag (UNK, Homo sapiens, UniProt Q9C0B0, residues 30-357)
Technique: RNA Bind-n-Seq
Molecule type: RNA
Matrix: in vitro
Concentration: not given
Notes: RNA with constant flanks, human-mouse chimeric sites, ends assumed
Reference: input RNA pool
Reading: higher = stronger binding
Shared flanks, not repeated: GGGAGUUCUACAGUCCGACGAUC … CAACAGAGGAUUGAGCAUCA
Residues (chain): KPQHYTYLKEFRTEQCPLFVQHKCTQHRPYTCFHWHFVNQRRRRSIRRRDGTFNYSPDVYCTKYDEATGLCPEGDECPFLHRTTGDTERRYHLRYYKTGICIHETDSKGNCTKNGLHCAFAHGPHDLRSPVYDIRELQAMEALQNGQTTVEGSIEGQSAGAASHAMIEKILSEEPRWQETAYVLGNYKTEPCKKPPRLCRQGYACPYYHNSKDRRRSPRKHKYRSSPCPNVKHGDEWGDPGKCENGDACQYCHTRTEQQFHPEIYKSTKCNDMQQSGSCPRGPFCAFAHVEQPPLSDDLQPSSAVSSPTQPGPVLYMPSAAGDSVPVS
The bound/input enrichment of `UCUGGUCAUACUCGUGCGUAUGGUGUUUGCUUUGUGGACACUUCACUGGGCAAGUUUUUCAUCGGCCAGUUUUCGGAUGACCGCCACUGUUCGAGAUUUAGGACGCUAGUGGCUCACUAU` is reported as 0.21 ratio.
`GGCUGCUGGUGACUGUCCUGGAGUGGCCGUGUCACCGGCCGGAGCGCGGCCAGACUAAUUUUAGAAAAUGCCAAGUAGGAAGUUUGUUGAGGGUGAAGUGGUAAGAGGCCGAUGGCCUGG` has a bound/input enrichment of 9.79 ratio.
`AUCCAGUACUCGAAUCACAAAGAACUAAAGACAGAUAAUACAUUAAACCAACGUGCGCAGGCAGUUCUUCAAGCUGUGACAGCGGUCCAGACAGCAAAUACUCCUCUUAGUGGCACCACA` gave a bound/input enrichment of 0.337 ratio.
`GGUGGGGUGGUCAUUGCCGUUUGAGCUGCUGAUUUUCUUAUGAAUCAUUCAAAACUCUCGCAUAGGGUUGACAAUGUGGGGGGGUGGGGGAUCCAGCUUAUUCUUUUAUUUUCAAGUCCA` has a bound/input enrichment of 0.69 ratio.
`AAAGAACUACUGAGGCAAGGCAGCAAAUUUAGAAGAAACAUUUCAACAAUAUUGAUAGAGUUAGGAUUCCAAAUUAAAAAGAAAACUAAGACAUUAUAUAUCAACAAAGCCAAUGUGUGG` gave a bound/input enrichment of 13.5 ratio.
`GAAAGAGAACUAAAGCAACUAAUAGAGAAGAGGAUUGGCAAAGAGAAUUUCAUAGAGAAACUAGGAUUUAUUAGCAAACAUGAGUUAGUAUUCCAGACGUCUCAGAAACCCCAGCCAAAC` gave a bound/input enrichment of 2.06 ratio.
`CUGAAAAACACAGAUAUCAAAGUUGUUGACUUUGGAAGUGCAACGUAUGAUGAUGAACAUCACAGUACUUUGGUGUCCACAAGGCACUACAGAGCUCCCGAGGUCAUUUUGGCUCUAGGU` has a bound/input enrichment of 0.197 ratio.
`UGACAAGGGCACUGCAGAGCCAUGCCUUUCCUUGACAUACAGAAAAAGCUGGGCAUCAGCCUGGACCGAUGGUUGACGUUCCUAAGCGCAGAACAGCCCUAUAAGAACGCCGCUCGGUGC` has a bound/input enrichment of 0.064 ratio.
The bound/input enrichment of `CUGGCCUGGCCCUCCCCAGGGGCCUCCUUUCGUAUAGUCACUGCUUCUGCAUCAGAUACUUUCAGCUGCAACUCCCUACUGGGUGGGGCACCCAUUUGAGGCAGGGUGUUUUGGUACCCU` is reported as 0.39 ratio.
With `GACAGUGAAGGCCCACUGUGUGAAUUGCUUUUUUUCUUCCUGACUGCAAUCUUCCAGGCGAUGGCUGAAGAAGAAGAGGAAGUAGCCAAAGAGCAGAUAACUGAUGCUGACACCAAAGAU` the bound/input enrichment was 0.0659 ratio.
`UAAGUCCUGUGCCAGCAAUUUAUCCCAAAAGUUUUAAAUUCAAGAAAAAUAGUGUUUGUUUCCUGAUUAUUGUAUCCAAUACUUUGCCUAGUAUGUAACUCACUCUUACUGAUAAUAAAA` gave a bound/input enrichment of 12.4 ratio.
